Results of several laboratories.
Each line is one published result; not all experiments were run side by side. “And” joins repeats or separate records; there may be more than shown. Numbers after ± are the reported error.

SMILES	test	system	conditions	scale	endpoint	value
COc1cc2c(cc1OC)C(=O)C(CC1CCN(Cc3ccccc3)CC1)C2 (stereo not drawn)	Morris water maze	C57BL/6J mice, vascular dementia	10.0 and 1.0 mg/kg	–	platform crossings	increased
OC(CCN1CCCCC1)(c1ccccc1)C1CC2C=CC1C2 (stereo not drawn)	resting-state EEG	healthy elderly humans	oral, 2 mg, eyes open, LS mean	–	power, EEG beta, O2-Pz	7 µV²
N#CCC1CCN(c2nc(Nc3ccc(N4CCC(O)CC4)cc3)c3c(=O)[nH]ncc3n2)CC1	Olink multiplex, refers to: CD163	human, serum	80 mg, day 29	baseline: baseline	fold change from baseline	-1.51
CN[C@@H]1COc2c(S(=O)(=O)NC(=O)Nc3c4c(cc5c3CCC5)CCC4)cnn2C1	refers to: IL-18	human participants, whole blood ex vivo	900 mg twice daily, multiple doses, 156 h, IL-18, circulating, adjusted for, together with: LPS/ATP	baseline: baseline	inhibition	99%
N#Cc1ccc2c(-c3ccncc3)c(-c3ccc(F)cc3)nn2c1	kinase binding, competitor, MIB/MS competition, refers to: IKS1	Candida albicans cell lysate	100 nM	baseline: DMSO	log2 fold change	-0.379
C[C@@H](O)CCOC(=O)C[C@@H](C)O	refers to: Leu/Ile	human, plasma	60 min, log2-transformed values	–	metabolite level	7.19 ± 0.28 µmol/L
N#Cc1ccn2c(-c3ccncc3)c(-c3ccc(F)cc3)nc2c1	kinase binding, competitor, MIB/MS competition, refers to: CMK2	Candida albicans cell lysate	100 nM	baseline: DMSO	log2 fold change	-0.764
NC(=O)c1cnc2[nH]ccc2c1N[C@@H]1[C@@H]2CC3C[C@H]1C[C@@](O)(C3)C2	CD8+ effector T cells, flow cytometry	Caucasian humans, peripheral blood	20 mg single dose	baseline: baseline	percent change	0.23%
C[C@H](Oc1ccc(Br)cc1-c1ccon1)C(=O)O	response latency	human, tibialis anterior muscle	1200 mg, 30 Hz+30 s	–	difference from placebo	0.935%
CSCCNc1nc(SCCC(F)(F)F)nc2c1ncn2[C@@H]1O[C@H](COP(=O)(O)OP(=O)(O)C(Cl)(Cl)P(=O)(O)O)[C@@H](O)[C@H]1O	ADP-induced platelet aggregation, LTA	human patients, platelet-rich plasma	dose not given, 15 min, together with: ADP 20 µM	–	inhibition	34.2 ± 22.7%
C=CCn1c(=O)c2cnc(Nc3ccc(N4CCN(C)CC4)cc3)nc2n1-c1ccc2c(n1)[C@@](O)(CC)CC2	–	TOV21G xenograft, BALB/c nude mice	oral, 80 mg/kg once daily x 19, day 20	baseline: vehicle	tumour growth inhibition	104%
Cn1cc(Nc2nccc(-c3ccc4c(c3)CN(C3COC3)CC[C@H]4NC(=O)c3cn(C(C)(C)C)nn3)n2)cn1	refers to: Th2 pathway	splenic B cells, mice	30 mg/kg, IgD-activated in vivo	baseline: vehicle, direction not given	pathway activation z-score	0.243
Cc1c(C)n(Cc2cccc(OC(C)(C)C(=O)O)c2)c2ccc(C(=O)N[C@@H](C)c3ccc(C(C)(C)C)cc3)cc12	indirect calorimetry	lean mice	dose not given, average over 72 h, end of treatment	–	VO2	73.2 ± 5.94 mL/min/kg
COc1ccc(-c2cncc(N[C@@H](C)c3cccc(NC(=O)c4cncc(C)c4)c3)n2)cc1OC	refers to: rno-miR-144-3p	rat SU5416/hypoxia model, lung	dose not given, unit not given	baseline: SU5416/hypoxia vehicle	delta delta Ct	0.668
C[C@@H](NC(=O)N1C(=O)[C@H](Cc2ccnc(N)c2)[C@H]1C(=O)O)C1CCCCC1	–	human	iv infusion, 1.0 mg/kg/h, 24 h, unit not given	baseline: baseline	ACT Emax	1.13
CN(C)C(=O)Oc1cccc([N+](C)(C)C)c1	neuromuscular block reversal	rat	dose not given, 11 (unit not given), together with: cisatracurium	baseline: T1 twitch	train-of-four ratio	85
O=C1N[C@H](c2cncc(C#Cc3ccccc3)c2)[C@@H](c2ccccc2Cl)O1	SV2A PET	dKI mice, hippocampus	dose not given, 1 month	baseline: baseline	synaptic density increase	17%
Cc1cc(C)c(CNC(=O)c2cc(Cl)c3c(c2C)O[C@@](C)([C@H]2CC[C@H](N(C)C)CC2)O3)c(=O)[nH]1	IWG 2007 criteria	human, relapsed/refractory peripheral T-cell lymphoma	dose not given	–	best overall response PR	24%
Cc1ccc([C@@H]2O[C@H](CO)[C@@H](O)[C@H](O)[C@H]2O)cc1Cc1ccc(-c2ccc(F)cc2)s1	–	Japanese type 2 diabetes patients	400 mg, day 16	baseline: day 0	change in 24-h mean serum insulin	-2.9 µU/mL
CC#CC(=O)N[C@H]1CCCN(c2c(F)cc(C(N)=O)c3[nH]c(C)c(C)c23)C1	–	human, peripheral blood	3 mg once daily, day 15	baseline: baseline	B cells	-9.8 % change
CC(=O)NCC(=O)NCC(=O)N[C@H](C(=O)N[C@@H](Cc1ccc(O)cc1)C(=O)N[C@@H](CO)C(=O)N[C@H]1CSSC[C@@H](C(=O)N[C@@H](CCCNC(=N)N)C(=O)N2CCC[C@H]2C(=O)N[C@@H](CCC(N)=O)C(=O)N[C@@H](CCCNC(=N)N)C(=O)NCC(=O)NCCC(=O)N[C@@H](CCCCNC(=O)CN(CC(=O)NCCCC[C@H](NC(=O)CCNC(=O)CNC(=O)[C@H](CCCNC(=N)N)NC(=O)[C@H](CCC(N)=O)NC(=O)[C@@H]2CCCN2C(=O)[C@H](CCCNC(=N)N)NC(=O)[C@@H]2CSSC[C@H](NC(=O)[C@H](CO)NC(=O)[C@H](Cc3ccc(O)cc3)NC(=O)[C@@H](NC(=O)CNC(=O)CNC(C)=O)[C@@H](C)O)C(=O)N[C@@H](Cc3c[nH]cn3)C(=O)N[C@@H](Cc3ccccc3)C(=O)NCC(=O)N[C@@H](C)C(=O)N[C@@H](CC(C)C)C(=O)N[C@@H]([C@@H](C)O)C(=O)N[C@@H](Cc3c[nH]c4ccccc34)C(=O)N[C@@H](C(C)C)C(=O)N2)C(N)=O)C(=O)CCN)C(N)=O)NC(=O)[C@H](C(C)C)NC(=O)[C@H](Cc2c[nH]c3ccccc23)NC(=O)[C@H]([C@@H](C)O)NC(=O)[C@H](CC(C)C)NC(=O)[C@H](C)NC(=O)CNC(=O)[C@H](Cc2ccccc2)NC(=O)[C@H](Cc2c[nH]cn2)NC1=O)[C@@H](C)O	–	healthy BALB/c mice	subcutaneous, 0.08 mg/kg, 8 d, single dose	–	haematocrit	42.7%
Cc1noc(C)c1-c1cc(C(O)(c2ccccn2)c2ccccn2)c2nc(C3CC3)[nH]c2c1	refers to: CCR2 expression	human, peripheral blood	2 mg, day 1, 1599 study	–	maximum inhibition	24.2%
O=C1Nc2cc3[nH]nc(-c4ccncc4)c3cc2CN1Cc1ccccc1	RECIST v1.1	human, relapsed or refractory advanced solid tumours	intravenous, 7.2 mg/kg, pooled schedules	–	stable disease, best response	20%

SMILES	test	system	conditions	scale	endpoint	value
Cc1ncsc1-c1ccc(CNC(=O)[C@@H]2C[C@@H](O)CN2C(=O)[C@@H](NC(=O)C2(C#N)CC2)C(C)(C)C)cc1	immunostaining	Mus musculus, meninges around middle cerebral artery	dose not given, together with: urotensin II in aCSF	–	HIF-1α level	50.2 MFI
Cc1n[nH]c2ccc(-c3cc(OC[C@@H](N)Cc4ccccc4)cnc3-c3ccoc3)cc12	kinase binding, competitor, MIB/MS competition, refers to: KIN2	Candida albicans cell lysate	1 µM	baseline: DMSO	log2 fold change	-0.118
N#Cc1ccc2c(c1)[C@H]1CCCN(C(=O)c3ccc4[nH]cnc4c3)[C@H]1C2	refers to: androstenedione	human male, Phase II trial	oral, 20 mg once daily, HPA axis, mean	–	change from baseline	3.03 nmol/L
COc1nnc2ccc(N3CCC(c4ccc(OCCN5CCN(C)C(=O)[C@H]5C)cc4)CC3)nn12	–	human patients	30 mg once daily, 2-fold above baseline	–	time above HEXIM1 threshold	3.1 h
CC1(C)CCC(c2ccc(Cl)cc2)=C(CN2CCN(c3ccc(C(=O)NS(=O)(=O)c4ccc(N[C@H](CCN5CCOCC5)CSc5ccccc5)c(S(=O)(=O)C(F)(F)F)c4)cc3)CC2)C1	cell killing, flow cytometry PI exclusion	canine blood CD21+ B cells, dog 32	24 h	–	EC50	376 nM
C[C@H]1C[C@H]2CSC(N)=N[C@@]2(c2nc(NC(=O)c3ccc(OC(F)F)cn3)cs2)CO1	refers to: total Aβ	healthy adults, plasma	50 mg once daily, day 14	baseline: placebo	percent change from baseline	-61.8%
C=Cc1c(C)c2cc3nc(c(CC(=O)O)c4[nH]c(cc5nc(cc1[nH]2)C(C)=C5CC)c(C)c4C(=O)O)[C@@H](CCC(=O)O)[C@@H]3C	flow cytometry	4T1 tumour-bearing mice, spleen	dose not given	–	effector memory T cells	28.3% and 37.7% and 47.3%
CC(C)NCC(O)c1ccc(O)c(O)c1 (stereo not drawn)	–	ventricular cardiomyocytes, C57BL/6 mouse	dose not given, 0.808 s	–	sarcomere length	1.6 µm
C1=C/COCc2cc(ccc2OCCN2CCCC2)Nc2nccc(n2)-c2cccc(c2)COC/1	–	BALB/c mice rhEPO-induced polycythemia	120 mg/kg	–	hematocrit	46.9% and 47.1% and 52.7% and 51.6% and 53.7% and 51.2%
Cc1cc(Nc2ccc(S(F)(F)(F)(F)F)cc2)n2nc(C(C)(F)F)nc2n1	refers to: dihydroorotate	female CD-1 mice, pooled urine	oral, 300 mg/kg daily, 8-24 h after dose 3	–	DHO concentration	5.4 ± 0.229 µM
C[N+](C)(C)CCOC(N)=O	field potential oscillations	mouse, hippocampal slice CA1 stratum pyramidale	20 µM	baseline: baseline	beta-band power	28 fold
COc1ccccc1[C@H](Cn1c(=O)n(C(C)(C)C(=O)O)c(=O)c2c(C)c(-c3ncco3)sc21)OC1CCOCC1	[1-13C]acetate infusion, isotopomer analysis	overweight or obese healthy men, plasma VLDL-TG palmitate	oral, 20 mg single dose, 5 h post-dose, together with: oral fructose	–	fractional hepatic DNL	9.09 % new palmitate
Cc1oncc1C(=O)Nc1ccc(C(F)(F)F)cc1	refers to: dihydroorotate	female CD-1 mice, blood	oral, 10 mg/kg daily, 8 h after dose 3, 10-day dosing	–	DHO concentration	5.23 ± 1.53 µM
C[C@@H]1CCC[C@H](n2cnc(-c3cc(Cl)ccc3-n3cc(Cl)nn3)cc2=O)c2cc(ccn2)-c2c(cnn2C(F)F)NC1=O	–	rabbit plasma	IC2.5× aPTT, Actin FS reagent	–	concentration for aPTT prolongation	5 µM
CCCCCN1C[C@H](O)[C@@H](O)[C@H](O)[C@@H]1CO	–	Hexb-/- mouse, liver	300 mg/kg/day, unit not given	baseline: 30 mg/kg/day	increased sphingolipid species	0
Oc1nc2nonc2cc1Nc1c(F)c(F)c(F)c(F)c1F	indirect calorimetry	Western diet-fed mice	oral gavage, 130 mg/kg, 4 h	baseline: vehicle	carbon dioxide production	increased
O=C(O)CNC(=O)Cc1ccccc1	–	ventricular cardiomyocytes, C57BL/6 mouse	dose not given, 0.84 s	–	sarcomere length	1.63 µm
NCC(=O)Nc1cncc(-c2nn3c(=O)cc(N4CCNCC4)nc3s2)c1	ADP-induced platelet aggregation, light transmission aggregometry	human stable CAD patients on aspirin, platelets ex vivo	0.04 mg/kg, 5 min post dose, together with: 20 µM ADP	baseline: placebo difference	inhibition of platelet aggregation	14%
O=S(=O)(NCCNC/C=C/c1ccc(Br)cc1)c1cccc2cnccc12	–	mouse zygotes	20 µM, 24 h post-hCG	–	embryos reaching blastocyst	0%
CCN(CC)CCNC(=O)c1cc(S(C)(=O)=O)ccc1OC	catalepsy bar test	female CD-1 mice	intraperitoneal, 200 mg/kg, 90 min after dosing	–	time on bar	35.8 s and 38.8 s and 12.8 s and 25.5 s and 32.1 s
c1ccc(-c2n[nH]cc2-c2ccnc3ccccc23)nc1	kinase binding, competitor, MIB/MS competition, refers to: CMK2	Candida albicans cell lysate	1 µM	baseline: DMSO	log2 fold change	0.199
CC(C)[C@H](C(=O)Nc1ccc(C(=O)NO)cc1)c1ccccc1	volumetric MRI	human, left IAC schwannoma	10 days treatment, post-treatment, day 23	–	annual tumour growth rate	50.1 %/year

Some of these lines once more:
SMILES	test	system	conditions	scale	endpoint	value
Cc1ncsc1-c1ccc(CNC(=O)[C@@H]2C[C@@H](O)CN2C(=O)[C@@H](NC(=O)C2(C#N)CC2)C(C)(C)C)cc1	immunostaining	Mus musculus, meninges around middle cerebral artery	dose not given, together with: urotensin II in aCSF	–	HIF-1α level	50.2 MFI
OC(CCN1CCCCC1)(c1ccccc1)C1CC2C=CC1C2 (stereo not drawn)	resting-state EEG	healthy elderly humans	oral, 2 mg, eyes open, LS mean	–	power, EEG beta, O2-Pz	7 µV²
Cc1n[nH]c2ccc(-c3cc(OC[C@@H](N)Cc4ccccc4)cnc3-c3ccoc3)cc12	kinase binding, competitor, MIB/MS competition, refers to: KIN2	Candida albicans cell lysate	1 µM	baseline: DMSO	log2 fold change	-0.118
CCCCCN1C[C@H](O)[C@@H](O)[C@H](O)[C@@H]1CO	–	Hexb-/- mouse, liver	300 mg/kg/day, unit not given	baseline: 30 mg/kg/day	increased sphingolipid species	0
CC#CC(=O)N[C@H]1CCCN(c2c(F)cc(C(N)=O)c3[nH]c(C)c(C)c23)C1	–	human, peripheral blood	3 mg once daily, day 15	baseline: baseline	B cells	-9.8 % change
CCN(CC)CCNC(=O)c1cc(S(C)(=O)=O)ccc1OC	catalepsy bar test	female CD-1 mice	intraperitoneal, 200 mg/kg, 90 min after dosing	–	time on bar	35.8 s and 38.8 s and 12.8 s and 25.5 s and 32.1 s
